Assay results of several laboratories.
A part holds a random share of what one study measured. Changes are numbered by the printed parent chain.

Set 1
Target: Sal-like protein 4, full length isoform B (SALL4, Homo sapiens, UniProt Q9UJQ4-2, residues 1-616)
Technique: universal PBM
Form: double-stranded DNA, one strand shown
Medium: in vitro
Concentration: not given
Notes: 8-mer, flanks averaged, mean of replicates
Direction: higher = stronger binding
Quantity: E-score
Construct (chain): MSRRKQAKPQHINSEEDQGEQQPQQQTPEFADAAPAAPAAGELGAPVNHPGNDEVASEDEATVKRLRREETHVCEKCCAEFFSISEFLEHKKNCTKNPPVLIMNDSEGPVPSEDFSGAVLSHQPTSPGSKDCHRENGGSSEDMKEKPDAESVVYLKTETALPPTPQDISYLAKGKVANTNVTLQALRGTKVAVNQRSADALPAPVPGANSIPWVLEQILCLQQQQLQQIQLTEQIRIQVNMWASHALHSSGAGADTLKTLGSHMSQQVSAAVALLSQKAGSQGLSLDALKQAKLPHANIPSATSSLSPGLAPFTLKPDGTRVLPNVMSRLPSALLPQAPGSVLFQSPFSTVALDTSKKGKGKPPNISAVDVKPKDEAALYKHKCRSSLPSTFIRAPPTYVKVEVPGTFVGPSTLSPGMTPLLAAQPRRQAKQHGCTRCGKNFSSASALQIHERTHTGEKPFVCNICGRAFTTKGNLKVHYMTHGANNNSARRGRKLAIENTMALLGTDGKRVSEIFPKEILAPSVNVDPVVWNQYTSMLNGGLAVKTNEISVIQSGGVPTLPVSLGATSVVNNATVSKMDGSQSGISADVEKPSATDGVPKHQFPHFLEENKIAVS
GGCTGGTA: -0.277
TAGGACAA: 0.194
ACCCGCAC: -0.213
GCTAGCGA: -0.0449
GCCCCTAC: -0.223
AGTGAGTA: 0.165
ATTGAAAA: 0.375
CGCGCCCG: -0.329
AAAGATGG: 0.0889
ACAAGCCC: -0.205
GCCTGGCC: -0.249
CTCCTCGA: -0.209
GCCCAGAC: -0.366
ACGACCGT: -0.223
CTATGGGC: -0.108
GTTGCAGA: -0.0575
AGCTGGAT: -0.119
AGTTCAAG: 0.169
ACGACGAC: -0.0775

Set 2
Target: TAR DNA-binding protein 43, full length, His tag (TARDBP, Homo sapiens, UniProt Q13148, residues 1-414)
Technique: RNA Bind-n-Seq
Form: RNA
Medium: in vitro
Concentration: 20 nM
Notes: 6-mer, flanks averaged, single round
Added: 150 mM KCl
Baseline: input library
Direction: higher = stronger binding
Quantity: 6-mer enrichment (R)
GAAUUA: 0.665
AUACGG: 0.965
GCCGCG: 1.51
AUGAUC: 0.605
GAUAGG: 1.68
GGGCCC: 1.63
AUAUGA: 0.683
UGGCGA: 1.41
UGCAGC: 0.86
CACACU: 0.618
CCAUGU: 0.673
AGCCGU: 0.77

Set 3
Target: Max-binding protein MNT, bHLH-zipper, MAX partner unstated (MNT, Homo sapiens, UniProt Q99583, residues 220-300)
Technique: protein-binding microarray
Form: double-stranded DNA, one strand shown
Medium: in vitro
Concentration: not given
Notes: k-mer, scored over probes, only values ≥0.25
Direction: higher = stronger binding
Quantity: E-score
Target sequence (chain): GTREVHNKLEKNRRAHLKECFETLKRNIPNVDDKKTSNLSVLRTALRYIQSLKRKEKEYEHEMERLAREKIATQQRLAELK
ACGCGGTC: 0.335
ATGTGCAG: 0.287
ACGCACGC: 0.422
CTCCCACC: 0.26
CCTCCCAC: 0.266
CAGCCATG: 0.276
AATGCGTG: 0.266
AACGTGAC: 0.419
GACATGCA: 0.258
AACGTGGC: 0.426

Set 4
Target: CCNB2, cyclin fold, Cln2 fusion (human)
Technique: yeast growth competition, sequencing
Medium: yeast
Notes: weak parent motif
Baseline: not given
Direction: higher = stronger binding
Quantity: normalised enrichment score
Parent: CDC25A docking peptide (human); PPHRRRLLFACSP
P2Y: 0.667
P1Y: 1.06
P1L: 0.502
H3W: 1.26
P1K: 0.853
C11M: 0.294
L8M: 0.41

Other studies, line by line
PhoQ, residues 284 288 289 292 302 303 ASASEQ — fold induction (PhoP, residues 12 14 15 18 19 QWHVF (Escherichia coli, UniProt P23836); Sort-seq, item: YFP reporter; E. coli; PhoQ-PhoP variant library, added: 10 µM Mg2+; baseline: high Mg2+ state, higher = stronger signaling): 1.03

For quick reference, copied from above (set 1):
ACGACGAC: -0.0775
GCCCCTAC: -0.223
AAAGATGG: 0.0889
